Results collected from several papers.
Protocols differ between the studies behind these lines. ± marks the error that the study gave.
Chain of UniProt P41143 (whole entry, looked up): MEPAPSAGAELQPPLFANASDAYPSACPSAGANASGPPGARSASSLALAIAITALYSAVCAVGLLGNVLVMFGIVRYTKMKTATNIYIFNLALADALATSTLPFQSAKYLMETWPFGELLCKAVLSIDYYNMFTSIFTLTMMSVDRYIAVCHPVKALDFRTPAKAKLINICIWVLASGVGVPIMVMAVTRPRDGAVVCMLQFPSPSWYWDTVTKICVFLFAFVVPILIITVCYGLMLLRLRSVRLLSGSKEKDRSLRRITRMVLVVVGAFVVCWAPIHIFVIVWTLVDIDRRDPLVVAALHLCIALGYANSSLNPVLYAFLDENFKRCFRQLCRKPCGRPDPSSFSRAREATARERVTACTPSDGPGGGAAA
Chain of UniProt P37136 (whole entry, looked up): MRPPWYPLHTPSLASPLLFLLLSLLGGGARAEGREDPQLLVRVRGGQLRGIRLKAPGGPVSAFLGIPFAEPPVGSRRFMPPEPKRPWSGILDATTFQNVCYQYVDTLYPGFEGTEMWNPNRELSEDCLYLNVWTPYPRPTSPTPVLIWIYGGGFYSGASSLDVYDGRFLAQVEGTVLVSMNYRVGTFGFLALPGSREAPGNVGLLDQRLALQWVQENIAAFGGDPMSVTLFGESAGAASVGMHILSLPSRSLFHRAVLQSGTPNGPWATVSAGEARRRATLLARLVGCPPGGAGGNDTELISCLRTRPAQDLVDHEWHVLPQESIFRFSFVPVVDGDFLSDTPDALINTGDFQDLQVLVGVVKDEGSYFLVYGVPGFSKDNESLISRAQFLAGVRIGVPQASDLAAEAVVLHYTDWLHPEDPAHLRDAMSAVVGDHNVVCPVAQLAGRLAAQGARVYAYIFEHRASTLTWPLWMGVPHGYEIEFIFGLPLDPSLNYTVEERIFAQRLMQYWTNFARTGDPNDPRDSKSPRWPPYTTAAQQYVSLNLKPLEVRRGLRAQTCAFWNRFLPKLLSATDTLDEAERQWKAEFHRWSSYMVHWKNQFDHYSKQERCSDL
Chain of UniProt P06276 (whole entry, looked up): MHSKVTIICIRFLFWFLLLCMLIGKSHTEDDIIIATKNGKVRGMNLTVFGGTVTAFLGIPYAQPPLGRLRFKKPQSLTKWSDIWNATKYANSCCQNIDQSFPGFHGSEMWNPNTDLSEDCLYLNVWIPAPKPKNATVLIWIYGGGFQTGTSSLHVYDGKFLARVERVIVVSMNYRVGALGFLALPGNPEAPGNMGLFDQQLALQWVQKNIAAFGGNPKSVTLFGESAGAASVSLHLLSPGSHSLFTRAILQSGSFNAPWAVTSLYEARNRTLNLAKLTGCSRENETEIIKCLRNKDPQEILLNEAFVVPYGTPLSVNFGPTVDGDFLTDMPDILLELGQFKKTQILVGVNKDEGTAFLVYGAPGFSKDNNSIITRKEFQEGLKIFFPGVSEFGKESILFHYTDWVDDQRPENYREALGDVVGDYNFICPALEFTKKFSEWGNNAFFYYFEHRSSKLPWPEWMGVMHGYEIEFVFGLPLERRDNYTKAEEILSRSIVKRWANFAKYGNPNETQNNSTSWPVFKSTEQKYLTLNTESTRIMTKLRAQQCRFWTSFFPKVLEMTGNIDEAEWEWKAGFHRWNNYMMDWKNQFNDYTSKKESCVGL
Chain of UniProt P42866 (whole entry, looked up): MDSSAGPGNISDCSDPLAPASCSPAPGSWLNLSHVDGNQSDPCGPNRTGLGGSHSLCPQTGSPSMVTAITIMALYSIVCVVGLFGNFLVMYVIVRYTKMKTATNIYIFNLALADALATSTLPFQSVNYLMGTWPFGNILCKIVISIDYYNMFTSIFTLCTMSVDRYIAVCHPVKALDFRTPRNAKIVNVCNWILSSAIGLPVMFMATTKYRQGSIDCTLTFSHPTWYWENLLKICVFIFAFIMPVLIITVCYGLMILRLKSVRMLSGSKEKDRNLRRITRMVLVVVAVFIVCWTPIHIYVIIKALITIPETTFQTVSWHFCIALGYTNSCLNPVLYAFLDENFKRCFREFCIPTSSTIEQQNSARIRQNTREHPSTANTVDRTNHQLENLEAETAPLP

Substance	target or system	test	system	conditions	how to read	endpoint	result
phoxim-oxon	Ache (Rattus norvegicus, UniProt P37136)	inhibitor	rat, postnatal day 1, rat skeletal muscle homogenate	15 min, 37 °C		IC50	14 nM
insulin			PBS			solubility	1050 µM
Ac-DEVD-CHO	Caspase-3 (CASP3, Homo sapiens, UniProt P42574)	enzyme activity				Hill slope	-0.99
benzalkonium bromide	Cholinesterase (BCHE, Homo sapiens, UniProt P06276)	enzyme activity, inhibitor		concentration not given, with Triton		inhibition	-49.7 ± 5.41%
propranolol		PAMPA	2% lecithin in dodecane	100 µM, 17 h, pH 6.4		permeability	3.9 ×10⁻⁶ cm/s
SNC80	Delta-type opioid receptor, with Gz (OPRD1, Homo sapiens, UniProt P41143)	Gz activation, agonist				EC50	0.36 nM
DAMGO	Oprm1 (Mus musculus, UniProt P42866)	G protein activation, agonist	MOR-CHO cell membranes		relative to: full agonist	Emax	100 ± 9.2%

A few entries again:
Substance	target or system	test	system	conditions	how to read	endpoint	result
DAMGO	Oprm1 (Mus musculus, UniProt P42866)	G protein activation, agonist	MOR-CHO cell membranes		relative to: full agonist	Emax	100 ± 9.2%
